Assay results pooled from the literature.
Lines come from different studies, so protocols differ.
UniProt P04062, sequence (whole entry, unmodified, looked up): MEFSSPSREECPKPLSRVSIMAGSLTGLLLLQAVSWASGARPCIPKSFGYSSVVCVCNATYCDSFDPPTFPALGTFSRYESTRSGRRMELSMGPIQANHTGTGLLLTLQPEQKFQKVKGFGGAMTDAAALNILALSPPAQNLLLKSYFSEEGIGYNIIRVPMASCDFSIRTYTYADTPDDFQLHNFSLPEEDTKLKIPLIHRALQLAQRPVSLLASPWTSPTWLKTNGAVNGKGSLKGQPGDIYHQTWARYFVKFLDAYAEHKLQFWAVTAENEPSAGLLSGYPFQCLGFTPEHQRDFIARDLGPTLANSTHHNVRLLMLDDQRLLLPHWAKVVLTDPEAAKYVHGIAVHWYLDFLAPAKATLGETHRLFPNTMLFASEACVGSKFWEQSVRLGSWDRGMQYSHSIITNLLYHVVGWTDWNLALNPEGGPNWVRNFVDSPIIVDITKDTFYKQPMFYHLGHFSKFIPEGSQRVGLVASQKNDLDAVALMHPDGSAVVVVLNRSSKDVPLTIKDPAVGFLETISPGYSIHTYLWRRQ

The Cmax of `CNCc1ccc(-c2cc(=O)c3ccc4[nH]c(C(F)(F)F)nc4c3o2)cc1` is reported as 164 ng/g (ICR mice, brain; intravenous, 2 mg/kg).
The Cmax of `CC(C)C[C@H](NC(=O)[C@H](CCCN)NC(=O)CNC(=O)[C@@H](NC(=O)[C@H](C)NC(=O)[C@@H]1CSCSC[C@H](NC(=O)CC[C@H](N)C(=O)O)C(=O)N[C@@H](CC(N)=O)C(=O)N[C@@H]([C@@H](C)O)C(=O)N[C@@H](C)C(=O)N[C@@H]([C@@H](C)O)C(=O)N1)[C@@H](C)O)C(=O)N[C@@H](C)C(=O)N[C@@H](CCC(=O)O)C(=O)N[C@@](C)(Cc1ccccc1)C(=O)N[C@@H](CC(C)C)C(=O)N[C@H](C(=O)N[C@@H](CCCNC(=N)N)C(=O)N[C@@H](CO)C(=O)N[C@@H](CO)C(=O)N[C@@H](CC(N)=O)C(=O)N(C)[C@@H](CC(N)=O)C(=O)N[C@@H](Cc1ccccc1)C(=O)NCC(=O)N1CCC[C@H]1C(=O)N[C@@H](CCCCNC(=O)CC[C@H](NC(=O)CC[C@H](NC(=O)CCCCCCCCCCCCCCCCCCC(=O)O)C(=O)O)C(=O)O)C(=O)N[C@@H](CC(C)C)C(=O)N1CCC[C@H]1C(=O)N1CCC[C@H]1C(=O)N[C@H](C(=O)N[C@@H](CCC(=O)O)C(=O)N[C@H](C(=O)NCC(=O)N[C@@H](CO)C(=O)N[C@@H](CC(N)=O)C(=O)N[C@H](C(=O)N[C@@H](Cc1ccc(O)cc1)C(N)=O)[C@@H](C)O)C(C)C)[C@@H](C)O)C(C)C` is reported as 11.9 ng/mL (healthy human, plasma; subcutaneous, 0.12 mg single dose, geometric LS mean).
`CCCCCCCOc1ccc(CC[C@](N)(CO)COP(=O)(O)O)cc1C(F)(F)F` has a Cmax of 0.31 ng/mL (healthy human males, plasma; 0.125 mg, day 1).
With `CC1(C)CC[C@]2(NC(=O)C(C)(F)F)CC[C@]3(C)[C@H](C(=O)C=C4[C@@]5(C)C=C(C#N)C(=O)C(C)(C)[C@@H]5CC[C@]43C)[C@@H]2C1` the Cmax was 29.7 ng/mL (human, plasma; oral, dose not given, geometric least-squares mean, with: gemfibrozil).
The Cmax of `C=C[C@]1(C)C[C@@H](OC(=O)CSc2ccc(NC(=O)c3ccco3)cc2)[C@]2(C)[C@H](C)CC[C@]3(CCC(=O)[C@H]32)[C@@H](C)[C@@H]1O` is reported as 9530 ng/mL (M. gallisepticum-infected chickens, plasma; intramuscular, 80 mg/kg single dose).
`N=C(N)NCCC[C@@H]1NC(=O)[C@H](CO)NC(=O)[C@@H](NC(=O)[C@H](CO)NC(=O)[C@H](CO)NC(=O)[C@H](Cc2c[nH]c3ccccc23)NC(=O)CNC(=O)[C@H](CO)NC(=O)[C@@H](N)Cc2c[nH]c3ccccc23)CSSC[C@@H](C(=O)NCC(=O)O)NC(=O)[C@H](CO)NC1=O` gave a Cmax of 2160 ng/mL (patients, plasma; intravenous, 5 mg/kg, thrice weekly, median).
For `COc1cc(CN(C)CC2CCCN(CCc3ccccc3F)C2)cc(Cl)c1OC` (centres unmarked), the relative translation was 100% (Trypanosoma cruzi; reporter mRNA translation, inhibitor, item: capped polyadenylated Renilla luciferase mRNA; cell-free extract; concentration not given; baseline: control RNA).
With `COCC1CN(C2CCN(c3cc(OC)c(Nc4ncc(Br)c(Nc5ccc6c(c5P(C)(C)=O)OCCO6)n4)cc3C)CC2)C1` the Cmax was 1630 ng/mL (EGFR-mutant NSCLC patients, plasma; oral, 240 mg single dose, geometric mean).
`C=C(NC(=O)c1csc(-c2nc3c(cc2O)-c2nc(cs2)C(=O)NC(C(C)O)C(=O)NC(=C(C)OC)c2nc(cs2)C(=O)NC2c4nc(cs4)C(=O)NC(COC(=O)c4c5c6c(cccc6n4O)COC(=O)C(OC4CC(C)(O)C(N(C)C)C(C)O4)C2OC5)c2nc-3cs2)n1)C(N)=O` (centres unmarked) has a Cmax of 341 ng/mL (ICR mice, Streptococcus pneumoniae ATCC 49169 infected, immunocompromised, blood; intravenous, 8 mg/kg/day three times daily).
`Cc1cc(C)nc(NC(=S)N2CCN(Cc3ccc(C(F)(F)F)cc3)CC2)c1` has a Cmax of 7980 ng/mL (plasma; intraperitoneal, 30 mg/kg).
With `COC1CN([C@H]2CC[C@H]([C@@]3(C)Oc4c(Cl)cc(C(=O)NCc5c(SC)cc(C)[nH]c5=O)c(C)c4O3)CC2)C1` the Cmax was 2550 ng/mL (female CB17 SCID mice, HT-1376 xenograft, plasma; 75 mg/kg, day 1).
For `OCCCN1CC[C@@H]2C[C@H]1c1cc(-c3ccc(C(F)(F)F)cc3)ccc12`, the Cmax was 508 ng/mL (plasma; ip, concentration not given).
`COc1cccc(CNC(=O)CCC2CCCN(C/C=C/c3ccccc3OC)C2)c1` (centres unmarked) has a relative translation of 95.8% (Trypanosoma cruzi; reporter mRNA translation, inhibitor, item: capped polyadenylated Renilla luciferase mRNA; cell-free extract; concentration not given; baseline: control RNA).
`OC[C@@H]1[C@@H](O)[C@H](O)[C@@H](O)CN1CCCCCOCc1ccc(-c2ccc(F)cc2)cc1` has an IC50 of 400 nM (GBA1 (Homo sapiens, UniProt P04062, R534H); inhibitor, 4MU-β-D-glucopyranoside; with: 4MU-β-D-glucopyranoside).

Some of these lines once more:
`Cc1cc(C)nc(NC(=S)N2CCN(Cc3ccc(C(F)(F)F)cc3)CC2)c1` has a Cmax of 7980 ng/mL (plasma; intraperitoneal, 30 mg/kg).
